Assay results pooled from the literature.
A part holds a random share of what one study measured. Substitutions count along the parent as printed.

Sample 1
Target: PABPC1L2, full length, GST fusion (mouse, UniProt A0ABA7IW68)
Method: RNAcompete
Molecule type: RNA
Matrix: in vitro
Concentration: 20 nM
Notes: 7-mer, probes averaged, single round
Baseline: mean of 7-mers
Reading: higher = stronger binding
Construct (chain): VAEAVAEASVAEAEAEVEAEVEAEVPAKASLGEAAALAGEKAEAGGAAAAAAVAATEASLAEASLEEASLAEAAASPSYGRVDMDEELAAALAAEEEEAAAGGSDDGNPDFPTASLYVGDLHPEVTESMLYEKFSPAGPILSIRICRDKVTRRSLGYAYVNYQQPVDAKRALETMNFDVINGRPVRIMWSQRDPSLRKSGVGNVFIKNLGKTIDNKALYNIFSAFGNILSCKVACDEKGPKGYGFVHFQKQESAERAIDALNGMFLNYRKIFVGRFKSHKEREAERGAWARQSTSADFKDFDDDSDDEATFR
Oligonucleotide	7-mer Z-score
UAGUUUG	-0.452
AGAAUCG	-0.05
AAUCGUA	-0.00652
AAGCUGA	0.066
CAUGAGC	-0.133
CAAGAAC	-0.0373
GGUAUUG	-0.112
ACUCCGU	-0.345
UAGGUCU	-0.119
ACAGGUU	-0.00289
ACCAUUU	-0.132
AUGAUUG	-0.217
GCCUGGA	-0.0917
AACAGUA	0.64
AGAUCCG	-0.293
AUAGGGA	0.196

Sample 2
Target: RNA binding protein fox-1 homolog 2, RRM domain, GST-SBP tag (RBFOX2, Homo sapiens, UniProt O43251-10, residues 100-194)
Method: RNA Bind-n-Seq
Molecule type: RNA
Matrix: in vitro
Concentration: 365 nM
Notes: natural RNA segment, single round, ends assumed
Baseline: no-protein control
Reading: higher = stronger binding
All sequences stand within: GGGAGUUCUACAGUCCGACGAUC … UGGAAUUCUCGGGUGCCAA
Residues (chain): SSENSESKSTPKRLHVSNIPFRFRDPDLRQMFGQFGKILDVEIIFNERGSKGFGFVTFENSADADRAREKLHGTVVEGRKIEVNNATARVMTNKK
Oligonucleotide	RBNS enrichment (R)
GUGUGUGCUGUGGUGCACCGCCUGGCUUUGGGGGUCCCGGAGGCAGGCUGCCUAGACUCACAGCCUCGGGACCGUUGCCACGGCCUGUCUUCUCGUUCAGGCCUGCCUCU	0.224
GUCCCGAGUAGGUGCCCAGCCCCUCUUGGGUACCAGAGUGGUUAUAGCGACACACUCCUCAUCCAGGCUUCCCAAGAUACACUAGCUCUGGGACACCCCAGGCAUGCUCU	0.564
UAUGUCAGUUAGCUAAAACUUCAGAAUACAUUUCUCCCUAUAAAGAGUUAUAAAUGAUGGUUUAGUUCUCAGGCAGCUACAAAUGCCUAUUUAUUCCCUAAUGUACCUGA	0.248
UCCUCCCUCCCAAGGCCCCCAGGAAUCCCUUCCUCCCAUGUCCUGGCAGCAGGACCCCAGGCUACAUAUGGAAGGUAGAGAUGUGGGGGUCCUGUAUCCUGGAGUAUUAU	0.727
AAGCAUGCUUCUCCUGAAAUUUAACUACAUUAGUAGUUGACAUUUGUAUACAUAUAUCCUAAUACAAGAGUAGGAUAAGGUGGAAAUGUAAUGGCCUGAGGGAUGGUGAA	7.94
UAACACGGGAUUUUAAAAAAUAUGCUCUCUCUCUCUCUGCUCUCUCUCUCUCUCUAAAUUUGGAUAUAUUUUCUUCCCAAAUUGAAUAUUUCCUUUGUUUAACUCCCCCC	1.61
CUGUCAGGCUGCGUAUUUAUUAAGUUUGGCUAUUCUAUAAAGACUUGUAUAUACUUCCGUGGAAAGAGUCAUGCGCUUCUGGAACGCCCUCUCUUCCCUGUUCCUCUGGG	0.54
GCUGGCAUGCUUGCAGCACAUGUCCAUUAAAGGUCAUUUUGUUUAUUUGUUGGCAUGCUUACAACACAUGUCCAUUAAAGUUCAUUUGGUCCUUUUAUUUUCAUUGUUUU	12.5
UUCUGCUUUCUGUUCGGGGUGCCCUUCACUUAAUUGCCUUACUGGCUGGCUGACGGCAGGGGAGUGUGAGUGUUAGGUUAGGGCCUUCUCAUGAAAGGGGCAGUUGCACA	0.482
AAUCUAUAAAACAGGCCUGAGAAGAUAGUUCUGGUCUUGUUCUGACUGUGGUAACUAGCUGUGACCAAGAAGAGAAAAUGUUGUGUCUUGGGAAAUGAACUUGGAUCUCU	1.89
AAGCUGUUAUAAAUAUAUAUUAUAUAAAUAUAUUAAAAAGGAAAAUGUUUCAGAUGUUUAUUUGUAUAAUUACUUGAUUCACACAGUGAGAAAAAAUGAAUGUAUUCCUG	3.71
GGCGUUUUUAUUAGCGGUCCUGAGUAAUUUCCCUUGGCAAAAUUCCCAGUUUUGCCACUCUCUGGAGCCAGAUCCUGGGAGCUGUCAGCAAGGAGCAGGUAAGUGAGCAG	0.39

Sample 3
Target: ABI1, truncated, D143A, DHFR fusion (Arabidopsis thaliana)
Method: DHFR PCA, deep sequencing
Matrix: yeast
Notes: methotrexate growth selection, single substitutions
Together with: (+)-ABA 710 µM
Baseline: wild-type fitted maximum
Reading: higher = stronger binding
Parent: PYL1, truncated, DHFR fusion (Arabidopsis thaliana); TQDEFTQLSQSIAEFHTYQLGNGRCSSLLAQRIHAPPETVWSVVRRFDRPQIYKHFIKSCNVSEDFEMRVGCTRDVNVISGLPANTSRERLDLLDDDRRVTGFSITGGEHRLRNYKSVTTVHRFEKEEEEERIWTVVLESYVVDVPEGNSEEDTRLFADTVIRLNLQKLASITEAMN; partner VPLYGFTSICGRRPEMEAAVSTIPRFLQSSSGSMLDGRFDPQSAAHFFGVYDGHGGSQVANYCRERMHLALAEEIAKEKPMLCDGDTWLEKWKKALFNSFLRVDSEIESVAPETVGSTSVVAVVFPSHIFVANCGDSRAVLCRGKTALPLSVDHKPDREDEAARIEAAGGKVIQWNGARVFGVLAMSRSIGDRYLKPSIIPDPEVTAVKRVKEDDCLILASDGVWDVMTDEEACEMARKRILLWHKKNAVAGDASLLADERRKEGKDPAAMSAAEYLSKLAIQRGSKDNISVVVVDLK
Change	relative binding score
T120V	13.6%
L20K	99.7%
A30V	101%
L93P	9.76%
D3R	96.8%
Q19L	97.8%
N149L	65%
G23Y	93.7%
I52R	102%
E64L	100%
D153S	74.4%
N77M	103%
T160F	103%
K58T	94.7%
S26M	98.4%
I105A	78.8%
D75W	97%
N165W	19.4%
T39S	100%
E129T	106%
R45C	80.9%
T135A	94%
G23R	99.4%
A30N	97.8%
F157I	88.4%

Sample 4
Target: CCNE2, cyclin fold, Cln2 fusion (human)
Method: yeast growth competition, sequencing
Matrix: yeast
Notes: strong parent motif
Baseline: not given
Reading: higher = stronger binding
Parent: RBL2 docking peptide (human); STTRRRLFVENDS
Change	normalised enrichment score
STTRRRLFVENQS [D12Q]	3.29
STTRLRLFVENDS [R5L]	0.179
STTRRRLFVENDH [S13H]	4.54
STTRRRLFVEMDS [N11M]	4.52
STTRRRLMVENDS [F8M]	0.0179
STTRRRLFVHNDS [E10H]	2.83
STTRGRLFVENDS [R5G]	-0.29
STTRRRLFVANDS [E10A]	2.88
STTRRRLFVVNDS [E10V]	2.55
STTRRRLFVENVS [D12V]	3.64
STTRRRLFVENDA [S13A]	3.97
STTTRRLFVENDS [R4T]	0.767
STTRRRLFVENDG [S13G]	4.72
STTRRRCFVENDS [L7C]	1.18
STTRMRLFVENDS [R5M]	0.417
STTRRRLFVENES [D12E]	4.07
STTRRRLFVMNDS [E10M]	2.72
STTRRRLLVENDS [F8L]	0.705
STTRRRLFNENDS [V9N]	3.83
STTRIRLFVENDS [R5I]	0.102
GTTRRRLFVENDS [S1G]	4.42
STTRRRLFIENDS [V9I]	3.24
STTRRRLYVENDS [F8Y]	0.765
STTVRRLFVENDS [R4V]	3.53
STTERRLFVENDS [R4E]	-0.161

Sample 5
Target: BATF2, bZIP domain (human)
Method: DHFR protein complementation
Matrix: yeast
Notes: single substitutions, most at no-binding floor
Baseline: wild-type JUN-FOS pair
Reading: higher = stronger binding
Parent: JUN, bZIP domain (human); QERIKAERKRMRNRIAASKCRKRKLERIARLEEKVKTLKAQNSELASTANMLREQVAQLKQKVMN; partner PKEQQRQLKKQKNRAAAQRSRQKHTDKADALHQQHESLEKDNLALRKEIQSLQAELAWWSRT
Change	binding fitness
N42D	-1.41 natural log
A46L	-0.226 natural log
Q41E	-0.182 natural log
E33C	-0.621 natural log
A49W	-1.05 natural log
Q41D	-0.603 natural log
E32F	-1.08 natural log
E54P	-1.33 natural log
E44I	-0.42 natural log
K39H	-0.468 natural log
Q41T	-0.447 natural log
E32R	-0.447 natural log
E32L	-0.704 natural log
A40C	-0.574 natural log
A49P	-1.32 natural log
A29S	-0.403 natural log
R53Q	-0.856 natural log
A46P	-1.28 natural log
K34G	-0.301 natural log
K36I	-0.516 natural log

Sample 6
Target: Histone acetyltransferase KAT6A, winged helix 2, GST fusion (KAT6A, Homo sapiens, UniProt Q92794, residues 85-181)
Method: protein binding microarray
Molecule type: double-stranded DNA, one strand shown
Matrix: in vitro
Concentration: not given
Notes: 8-mer, flanks averaged, mean of 2 arrays, mostly near background
Baseline: not given
Reading: higher = stronger binding
Construct (chain): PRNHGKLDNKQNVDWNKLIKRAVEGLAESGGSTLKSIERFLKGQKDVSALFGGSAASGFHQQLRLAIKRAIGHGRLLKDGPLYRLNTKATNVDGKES
Oligonucleotide	E-score
GGAGCTAA	0.104
CTGACTCC	-0.18
CTAGTGCA	-0.0186
CTTATGGC	0.055
CACCGGTG	-0.154
GAGTCAGA	-0.0147
CGTCAGAG	-0.0704
GAGGTGCA	0.0763
AGTAGCAC	-0.0372
TGAAGGCA	0.0604
GTCTACTA	0.0585
CTTGGCAA	-0.0108
CTTTGAGA	0.109
ACATCAGG	-0.111
AAAGATAA	0.0581
GCACGGGC	0.0777
AAGCACTA	-0.0347
AATCAACA	0.165
ACCGGGTG	0.0647
TCAAAGGA	-0.146
AATACGCT	-0.157
ATGTGTGC	-0.212
GGCGCCCA	0.248
CAAACGCA	0.00168
GAAACACA	0.0878

Repeated from above (sample 5):
Change	binding fitness
K34G	-0.301 natural log
E32F	-1.08 natural log
K36I	-0.516 natural log
E54P	-1.33 natural log
Q41D	-0.603 natural log
A40C	-0.574 natural log
A46L	-0.226 natural log
A46P	-1.28 natural log
A29S	-0.403 natural log
E32R	-0.447 natural log
A49W	-1.05 natural log
R53Q	-0.856 natural log
A49P	-1.32 natural log
K39H	-0.468 natural log
N42D	-1.41 natural log
Q41E	-0.182 natural log
